# Experimental data collected from several papers.
# Every numbered part comes from another study and shows a few of its results, in no order.

# Study 1
# Target: TAR DNA-binding protein 43, full length, His tag (TARDBP, Homo sapiens, UniProt Q13148, residues 1-414)
# Technique: RNA Bind-n-Seq
# Form: RNA
# Matrix: in vitro
# Tested at: 20 nM
# Notes: 6-mer, flanks averaged, single round
# With: 150 mM LiCl
# Relative to: input library
# Direction: higher = stronger binding
Sequence,6-mer enrichment (R)
UGGCCG,1.02
CUCAUA,0.865
UAAAAA,1.01
AGAGCU,0.929
UCCGGA,0.898
AGCCUG,0.903
CAAGCA,0.831
CUACGG,0.845
GCGCGC,1.08
AGUUAG,0.991
GUAUCA,0.867
CUUGAU,0.964
UACAAU,0.904
UGGGGG,1.57
ACCCCA,1.03
CGAUCG,0.936
AGAUAG,0.92
GUGUCG,1.18

# Study 2
# Target: Histone acetyltransferase KAT6A, winged helix 2, GST fusion (KAT6A, Homo sapiens, UniProt Q92794, residues 85-181)
# Technique: protein binding microarray
# Form: double-stranded DNA, one strand shown
# Matrix: in vitro
# Tested at: not given
# Notes: 8-mer, flanks averaged, mean of 2 arrays, mostly near background
# Relative to: not given
# Direction: higher = stronger binding
# Construct (chain): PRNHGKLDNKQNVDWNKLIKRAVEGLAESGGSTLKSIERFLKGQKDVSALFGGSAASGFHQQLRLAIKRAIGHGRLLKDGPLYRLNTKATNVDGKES
Sequence,E-score
TAAGAACA,0.172
GTGCGAAC,0.111
AGGTATAC,-0.0322
GTATGAAA,-0.0351
AGTGAGCC,-0.0898
TCGGCACA,0.0561
CAGTCTCC,0.125
AGAAGTTA,-0.0427
AAATCTTG,-0.0308
ACTCAAGT,-0.177
TAAAGAGA,-0.127
CCCAGGGA,-0.0102
GTTACACA,-0.0398
GATCAATC,0.0171
ACTATGAC,-0.174
ACCCCAAG,-0.119

# Study 3
# Target: RNA binding protein fox-1 homolog 2, RRM domain, GST-SBP tag (RBFOX2, Homo sapiens, UniProt O43251-10, residues 100-194)
# Technique: RNA Bind-n-Seq
# Form: RNA
# Matrix: in vitro
# Tested at: 365 nM
# Notes: natural RNA segment, single round, ends assumed
# Relative to: no-protein control
# Direction: higher = stronger binding
# Constant ends, left off below: GGGAGUUCUACAGUCCGACGAUC … UGGAAUUCUCGGGUGCCAA
# Residues (chain): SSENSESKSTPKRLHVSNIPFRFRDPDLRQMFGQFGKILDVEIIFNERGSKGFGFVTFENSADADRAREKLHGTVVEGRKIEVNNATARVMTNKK
Sequence,RBNS enrichment (R)
AGUGUCCCAAAGAUAUCUUAGAUAAACUAUUUUGAAGUUCAGAUUUCAGAUGAGGCAACAUUUUCUUGAGAUAAUUACCCAAGUUUCAUCCAUGUUGAAUGGUACAAAAU,0.353
AGGCUGCCCGGGUUCCCAUUCUGCUUCUGCCACUUCCAGCUGUGUGGCUUUAGGUGAGCCUUCACCUUUUGGUGCCUUCGUUUCCUCAUUUAGCACCUACCUCCUAGAGC,0.381
ACGUUGCAGUUUGUUUAAUGUAUGUUAAUUUCACCUGGCUUCAUUCAUUUUCCUUUUUAAAAUUUGUCUUUUAAAUAAACAAACAGAACCCUCUGUGAGGUUGGUGAGAG,0.528
UAAUCCCCAUAUUCUUCUACUGCCCUUAACUCUGGUAUACACCAAAAAGAAAUCUUUACUUUCCUUGUUUUAUCAUUAUAAAAAUAAAGUAUUUUGCUAGUAUGGAAACA,0.755
GACGUCACAUUUCUCGGCCUCCGACAUUAUGACAUUCUGCAUCCUGGUGCCUGAAGGAAACUCUGGGAAAUUGUACACUAACAGGGAGUUGAACCAUGAAGCUCUUCGUC,0.386
CACAGUGGAGCAGCUUGUCCACAAAUAUAGUAAUUACUAUUUAUUGCUCUAAGGAAGAUUAAAAAAAGAUAGGGAAAAGGGGGAAACUUCUUUGAAAAAUGAAACAUCUG,0.835
GAAAGAAAAAUACCAUGUCUCUAAGCCAACUUUAAUUGCUUAAAAGACAUUUUUAUUUAGUUGAAAAAUCUAGUUUUUUUUGUAAACUGUAUCAAAUCUGUAUAUGUUGU,1.25
ACCUACUCCCCUAGGUCACAACUCUGGGAAGGAUACAGAGCCCCCACCCUUCACUGAGUUCUCUGGAUUUGUUCUCAGUGCCUUAGCAACGAAAACCUGUGCUUGUGUGU,0.764
AAGAUUGAAUGUGUAUUUCUUAAAAAUACAACUUUGUGUUGUACUUUGAAAUAAAUGAUGCUUUUUUAAAAGCCUUGUUUUGUGGUUUUUUUUACACACAAGGUGUAUUU,1.02
CAUAUUUAUGGCCAGGCAUUCUAUCUGUUAGACAAUCGAGUUGGGGGUAGGGCAGCCUAGCUCUUUUUGUCACCUUGCCCCGAGCCCUCUUCAGUCUUCCUGUUCACCCC,0.339
GACCCCAUAACGACGUCCCACAAAAUGGAAAUAAAACGCAAAAUCUCUUUAGCAUUGUGUAAAUAAAUCUGGAUGUGUUUAACUUUGUACUGGUAAUUUUCUGUAUAUUU,1.56
GGUCUGGUCAGGGUCCUGCUGCUUCCGUAACCUGGGUUUGCCUGUCCACCCCUGGCCUCUUCCGUAUUUGCUGUUAUCUGCUCCCUCUUUCCUGAGGGGCCUCAGGGCAU,0.809

# Study 4
# Target: Hepatocyte nuclear factor 3-alpha (Foxa1, Mus musculus, UniProt P35582, residues 1-468, full length assumed)
# Technique: EMSA with sequencing
# Form: double-stranded DNA, one strand shown
# Matrix: in vitro
# Tested at: 10 and 20 nM
# Notes: whole designed probe, mean of two concentrations, ends assumed
# Relative to: negative control set to 0
# Direction: higher = stronger binding
# Constant ends, left off below: GTGAGCGGTGCCCATTGATGGGGAAC … TTTCACTGGGATCGTGGGGAC
# Construct (chain): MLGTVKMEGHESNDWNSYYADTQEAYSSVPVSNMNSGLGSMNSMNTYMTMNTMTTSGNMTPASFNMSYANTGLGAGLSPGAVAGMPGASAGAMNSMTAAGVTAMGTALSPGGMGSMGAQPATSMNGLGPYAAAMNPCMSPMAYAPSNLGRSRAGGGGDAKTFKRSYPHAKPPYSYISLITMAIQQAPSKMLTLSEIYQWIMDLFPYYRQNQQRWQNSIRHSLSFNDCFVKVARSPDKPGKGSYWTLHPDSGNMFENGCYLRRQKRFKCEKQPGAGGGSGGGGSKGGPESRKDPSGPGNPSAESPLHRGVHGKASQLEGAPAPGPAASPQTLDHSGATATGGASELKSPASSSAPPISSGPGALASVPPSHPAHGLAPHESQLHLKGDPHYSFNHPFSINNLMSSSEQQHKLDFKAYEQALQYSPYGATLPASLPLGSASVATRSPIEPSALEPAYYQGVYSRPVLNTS
Sequence,normalised bound fraction [ratio]
CACGCGGAGAGGCCACCTGCCCGGGCCAATCTGTACGCTCCGTGATCTTCGCCCGCTCCCCGGCCCCGCGCCCTGGTGTCCCTGCAGTCGCTGAGTAATCTGCGACTGGGAGCCATCTTGGGGCGGAGGACCGATCCCAAGCGAAGTAGTAGTGGCTGCAGCCCGGGTGCCCCCATTCGTAAAGGGGAGCCTC,-0.0865
ATCTTCCCCCTCTTCCTTGCCCCACCAGCTCACCTTCCCGGGTATCTGCAAATAAGTATTTATTTTCAAGCCGGCATTCGTTAACCCTCTTCTGGCGCAAACTGCTGTTTACTTTGGATGAATCATGGTCCTTTGGCGACGCCAGGCTCCGGGAGAGCAAAGCACCGTGTCAGGGCCATGATCCGGGGTGGCC,0.398
TAATTAAGACATATCTAAAAGTATCAACAGTATCGGGAAGAAAACATGAAGTTCACATGATACCCCAATGCTTCTAGAAAAGTCACAAATGAGTAAACAAGGAATATTATAACTGATATGTGTGATTCAGATAAAGACTAGGGTGGTACATGAAAAATGGCTTAAGTCAAGGGTGTAATTGAGACTAGATCAA,0.28
CATTAGAGTCAAAGTTGTTAAGGGGAGCTAGTCATAGCTACCACGTGGCCAGGCATGTATGAATCATCAGGAACCAGACACCAGGCACATAAAGTAAATAGATGAATAATGCTGACAACCTAGTTCATAGTGACACACTACTTGAGATATATAGAATAACATTATTACCCAGTAAGTATGTGAACATTCCGAT,0.381
CGTTTGCCAGCCCAAGATAGGCTGTGACAAAAGGAAGTGAGCCTTATCTATCAGTGGAGGTTGAACAACCAGCAACGTGAGTCATCCGCAAAAGTAATCTGCTGGGGCTAGATGCGGTGGCTCGCGCCTGTAATCCCAGCACTTTAGGAGGCCAAGGCAGGTGGATTACCTGAGGTCAGCCTGACCAACATGG,-0.0645
TTGGAGACTAACAGAAGGAATATATATTTTTTGAAGAGAAAAAAAACACAATTATCTTATTTTTGTCCTGGCTCTAACTTTGGCCAGTGTCAAAGTAATCTGGATAGATGGCTTCTCCATGCTAAATGATGCTAGATTAACATTGAAAGAAAAATTATAGTGATCAGTTATTTCAGTTTCAAATGTCCCAAAT,0.055
TGTTCTTCTATGAGACTATTGTCATCTCGGTAATTAAGAATGATTTCCAGTTCTCTGGAACTTCTCGTCTGATCCAGTAGGTCCTTAGCAAATTGTTTGCACTGCCGTGACAGCTCTTCATACTCCGACTTGAATTCATTTTCCACCTTGCTCAGTTCCTGAAGTTCCCAACTTAACTGAAAGGCTGTGAGAA,0.11
GTGGATGTCAGCTCACTCACTCATAGCCTTCCAGCCAGTCTCCACAGTCCCCACTGGGAAATCTGTCATGACCCTGTCATGCTCCCCAGATAGATGTTTGCTTAGAGAAAACCAAACATCTGATAAGGGAAGATCAGTAGAATCTGGTTTTATGTTCCCTAGGGTCAACCCAGAGTGAAATATAAGAAGTAAA,0.312

# Study 5
# Target: Centromere-binding protein 1, full length, N-terminal tag (CBF1, Saccharomyces cerevisiae, UniProt P17106, residues 1-351)
# Chain of UniProt P17106 (whole entry, looked up): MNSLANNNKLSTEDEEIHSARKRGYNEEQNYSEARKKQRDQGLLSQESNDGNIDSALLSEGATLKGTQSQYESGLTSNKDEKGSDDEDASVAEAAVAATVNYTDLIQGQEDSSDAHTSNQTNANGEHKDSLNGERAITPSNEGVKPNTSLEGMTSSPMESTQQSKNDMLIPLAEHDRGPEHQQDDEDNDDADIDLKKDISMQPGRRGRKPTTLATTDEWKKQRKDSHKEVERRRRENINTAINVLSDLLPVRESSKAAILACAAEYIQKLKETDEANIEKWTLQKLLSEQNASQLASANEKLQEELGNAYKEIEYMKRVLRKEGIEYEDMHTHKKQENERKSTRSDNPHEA
# Technique: protein-binding microarray
# Form: double-stranded DNA, one strand shown
# Matrix: in vitro
# Tested at: 0.8 µM
# Notes: whole 60-bp probe, no competitor
# Direction: higher = stronger binding
# Constant ends, left off below: … GTCTTGATTCGCTTGACGCTGCTG
Sequence,fluorescence intensity [a.u.]
GAATCTGGGAACTTGAACGTGGAATTTTTCATTTAG,523
CTAAATGTGTTCCGCACCGTCACAAAGTGTTTTTTC,496
GAACGCATTGAGAGGCACGTACGCAAGAAGAAATAG,574
GAACACTGGTACTGGCACGGGTGTTTGGAAAAATAG,610
CTAATCGTGTCCAATTCCGTGATGTCTCTTTGTTTC,524
CTAACTTGATCTTCCCACGTTCACATAGCCTCCTTC,539
CTATCACCTATATAACACGTTGGTTTCTCATTTTTC,517
CTAATTAGTCCCTTGCACGTTCATAGTGAAAATTTC,597
CTAGGCAACACTAATCACGCAACGCTAGAACTCTTC,575
TGTACGAAGCTATGTGGGGTGAATATAGTAGTTAGG,523
GAAGTCATGCAATATCTCGTGTTGTTATCCACCTAG,579
CTAGTTGACTTACCACATGTGCAGCCGCCTTTTTTC,706
GAATTTGGTTACCGTGACATCCTGCGAATCTCATAG,953
CTAGAAACGCTACACGTGATGATAATGGAACTATTC,7370
CTAATCCCCAAGGATCGCATGACAGAGTATGCTTTC,532
CTAATTTCACAATAGCACGTATATTAATAATAGTTC,563
CTAGATGTTGGTTTGACCGTGATTGATGTCCAATTC,567
GAATCTAGAACTCACGTTATGATATATTCTTACTAG,722
CCTAACTACTATAGTCACGCGTAATAGCTTCGTACA,1110
GAAGCAAGAAAACGTCACATTTTATGGAGAGGCTAG,572
CCTAACTACTATACTGATGCTATATAGCTTCGTACA,492
GAACACGACGAACGTGATGCCCGCAAAACGTAATAG,856
CTAGGAAAGAGGCCCCATGTGGCCTTCAAATAATTC,622
CTAATATATCCAAACCACACCACACATGGTCTCTTC,555
GAATAATAGGAAAACCACCACCGGCAGTTACAATAG,501

# Excerpt of the above (study 1):
Sequence,6-mer enrichment (R)
UCCGGA,0.898
AGCCUG,0.903
CAAGCA,0.831
CUACGG,0.845
GCGCGC,1.08
AGUUAG,0.991
GUAUCA,0.867
CUUGAU,0.964
UACAAU,0.904
UGGGGG,1.57
ACCCCA,1.03
CGAUCG,0.936
